# Results collected from several papers.
# Numbered parts are unrelated; each lists some results of a single study.

# Sample 1 — method: protein-binding microarray; form: double-stranded DNA, one strand shown; sample: in vitro; tested at: 250 nM; setting: 60-bp whole probe; added: salmon DNA 0.4 mg/ml; reference: random background probes; direction: higher = stronger binding; all sequences stand within: GCCTAGCAC … GTCTTGATTCGCTTGACGCTGCTG
# Target: Interferon regulatory factor 7, full length, phosphomimetic (IRF7, Homo sapiens, UniProt Q92985, residues 1-503, S101K/S471D/S472D/S475D/S476D/S477D/S483D/S484D/S487D)
# Target sequence (chain): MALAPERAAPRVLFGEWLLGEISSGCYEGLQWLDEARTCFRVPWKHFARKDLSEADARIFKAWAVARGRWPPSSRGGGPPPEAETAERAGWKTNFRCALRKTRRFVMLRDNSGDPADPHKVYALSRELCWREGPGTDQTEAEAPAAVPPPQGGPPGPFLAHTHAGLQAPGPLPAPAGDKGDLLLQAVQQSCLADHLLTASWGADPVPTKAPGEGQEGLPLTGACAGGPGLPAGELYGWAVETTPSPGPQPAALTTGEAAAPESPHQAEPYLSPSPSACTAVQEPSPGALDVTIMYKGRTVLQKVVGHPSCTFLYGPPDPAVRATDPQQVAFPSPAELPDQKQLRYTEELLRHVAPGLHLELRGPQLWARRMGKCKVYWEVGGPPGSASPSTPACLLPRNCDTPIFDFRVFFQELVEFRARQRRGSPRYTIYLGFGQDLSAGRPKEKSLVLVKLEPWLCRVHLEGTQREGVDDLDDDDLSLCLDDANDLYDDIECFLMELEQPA
Strand,log fluorescence [z-score]
GACGGTATCCTACTGCTTACGTGCTAG,-0.134
CCACATATGCTTTTTAGAAAGTGCTAG,0.533
TTAGGTATCGGGGATCGGTTAGTGCTA,0.0595
TAAGGTTTCGGGACTGGGTTAGTGCTA,3.98
GCCGGTCTCCTTTTCCTGACGTGCTAG,1.57

# Sample 2 — method: protein-binding microarray; form: double-stranded DNA, one strand shown; sample: in vitro; tested at: 0.8 µM; setting: whole 60-bp probe, no competitor; direction: higher = stronger binding; all sequences stand within: … GTCTTGATTCGCTTGACGCTGCTG
# Target: Centromere-binding protein 1, full length, N-terminal tag (CBF1, Saccharomyces cerevisiae, UniProt P17106, residues 1-351)
# Sequence of UniProt P17106 (whole entry, looked up): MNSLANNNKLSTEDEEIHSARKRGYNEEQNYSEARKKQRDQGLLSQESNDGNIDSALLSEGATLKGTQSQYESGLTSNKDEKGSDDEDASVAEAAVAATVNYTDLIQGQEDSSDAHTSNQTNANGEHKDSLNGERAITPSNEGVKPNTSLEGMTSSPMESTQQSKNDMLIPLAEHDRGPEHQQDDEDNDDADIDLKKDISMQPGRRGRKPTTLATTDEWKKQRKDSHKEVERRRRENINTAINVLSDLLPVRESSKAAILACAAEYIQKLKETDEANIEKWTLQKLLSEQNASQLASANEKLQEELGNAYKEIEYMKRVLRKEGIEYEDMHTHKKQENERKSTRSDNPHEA
Strand,fluorescence intensity [a.u.]
CTAGACACCGAGCGGCACGTACTATATTATCCGTTC,542
GAAGTCATGCAATATCTCGTGTTGTTATCCACCTAG,579
CTATGGAGTAAATGTCACGTGCCACTGTGGCCGTTC,18400
CTAAAATTTTGTCACCTGTGCTTTGCTAGAGTTTTC,754
CTATTGGTTAGAACTTTCGTGATAATTTATTTTTTC,552
GAAAGGGACGATAACCATCAGCAGGAAAAACGGTAG,525
CTAAATGTGTTCCGCACCGTCACAAAGTGTTTTTTC,496
GAATATGCATTTTCTCATGACCTATTCATTCGGTAG,608

# Sample 3 — method: RNA Bind-n-Seq; form: RNA; sample: in vitro; tested at: 20 nM; setting: 6-mer, flanks averaged, single round; added: 150 mM LiCl; reference: input library; direction: higher = stronger binding
# Target: TAR DNA-binding protein 43, full length, His tag (TARDBP, Homo sapiens, UniProt Q13148, residues 1-414)
Strand,6-mer enrichment (R)
ACCCCA,1.03
CUACGG,0.845
AACACG,0.823
AGAGCU,0.929
CAACGC,0.83

# Mixed results
Substance,target,assay,system,setting,how to read,quantity,result
"PhoQ, residues 284 288 289 292 302 303 SQSLSM","PhoP, residues 12 14 15 18 19 LYFRQ (Escherichia coli, UniProt P23836)","Sort-seq, measured: YFP reporter",E. coli,"PhoQ-PhoP variant library, added: 10 µM Mg2+","reference: high Mg2+ state, higher = stronger signaling",fold induction,10.3

# Excerpt of the above (sample 2):
Strand,fluorescence intensity [a.u.]
GAAAGGGACGATAACCATCAGCAGGAAAAACGGTAG,525
CTAAATGTGTTCCGCACCGTCACAAAGTGTTTTTTC,496
